Measurements gathered from unrelated publications.
Each line is one published result; not all experiments were run side by side.
rep main protease: Replicase polyprotein 1ab, main protease (rep, Severe acute respiratory syndrome coronavirus 2, UniProt P0DTD1)

The survival of `CNC(=O)[C@@H](NC(=O)[C@H](CC(C)C)[C@H](O)C(=O)NO)C(C)(C)C` is reported as 60% (Daboia russelii; mouse; intravenous, 120 µg/mouse, 24 h, drug mixture, added: venom 2.5 x LD50 preincubated).
The Emax of `COc1cc2cc(c1)C(=O)NCCCC(=O)N[C@H]1CN(C(=O)c3cccc(-c4ccccc4OC)c3)CC[C@@H]1OCc1cccc(c1)O2` is reported as 49.4% (Lassa mammarenavirus; viral replication; Huh-7; concentration not given).
For `CSCC(CC(=O)c1ccc(C)cc1)C(=O)O` (stereo not shown), the inhibition was 0.104% (rep main protease; viral replication, mKate2 reporter; SARS-CoV-2; 20 µM).
For `CCc1c(C(=O)C(N)=O)c2c(OCC(=O)O)cccc2n1Cc1ccccc1`, the survival was 0% (Daboia russelii; mouse; intravenous, 120 µg/mouse, 24 h, drug mixture, added: AP venom 2.5 x LD50 preincubated).
With `CCCCN(CCCC)CCCOc1ccc(C(=O)c2c(CC)cc3ccccn23)cc1` the EC50 was > 100 µM (SARS-CoV-2; viral replication, GFP plate reader screen; cell-based).
`Cc1ccc2c(NC(C)c3ccccc3)nc(N3CCNCC3)nc2c1` (stereo not shown) has an AC50 of 10 µM (SARS-CoV-2; cytopathic effect; USA_WA1/2020).
For `CNC(=O)[C@H](Cc1c[nH]c2ccccc12)NC(=O)[C@@H](CC(=O)NO)CC(C)C`, the inhibition was -0.848% (rep main protease; reporter gene (mKate2), inhibitor; 20 µM).
Under “subjects with decreased appetite”, `CC[C@H](C)[C@H](NC(=O)[C@H](CC(C)C)NC(=O)[C@H](Cc1c[nH]c2ccccc12)NC(=O)[C@H](CCC(N)=O)NC(=O)[C@@H](NC(=O)[C@H](Cc1ccccc1)NC(=O)[C@H](C)NC(=O)[C@H](CCCCNC(=O)COCCOCCNC(=O)COCCOCCNC(=O)CC[C@H](NC(=O)CCCCCCCCCCCCCCCCCCC(=O)O)C(=O)O)NC(=O)[C@H](CCC(N)=O)NC(=O)[C@H](C)NC(=O)[C@@H](NC(=O)[C@H](CCCCN)NC(=O)[C@H](CC(=O)O)NC(=O)[C@H](CC(C)C)NC(=O)C(C)(C)NC(=O)[C@@H](NC(=O)[C@H](CO)NC(=O)[C@H](Cc1ccc(O)cc1)NC(=O)[C@H](CC(=O)O)NC(=O)[C@H](CO)NC(=O)[C@@H](NC(=O)[C@H](Cc1ccccc1)NC(=O)[C@@H](NC(=O)CNC(=O)[C@H](CCC(=O)O)NC(=O)C(C)(C)NC(=O)[C@@H](N)Cc1ccc(O)cc1)[C@@H](C)O)[C@@H](C)O)[C@@H](C)CC)[C@@H](C)CC)C(C)C)C(=O)N[C@@H](C)C(=O)NCC(=O)NCC(=O)N1CCC[C@H]1C(=O)N[C@@H](CO)C(=O)N[C@@H](CO)C(=O)NCC(=O)N[C@@H](C)C(=O)N1CCC[C@H]1C(=O)N1CCC[C@H]1C(=O)N1CCC[C@H]1C(=O)N[C@@H](CO)C(N)=O` is recorded as 57.1% (healthy subjects; all MAD doses).
The remaining activity of `CNc1ncccc1C(=O)N1CC(=O)N[C@@H](CC(C)C)c2nc(cs2)C(=O)N[C@@H](Cc2ccccc2)c2nc(C)nn2CC(=O)N[C@@H](C(C)C)C1` is reported as 103% (Lassa mammarenavirus; viral replication; Huh-7; 10 µM, 72 h).
`Cn1cnc(Cn2c(=O)[nH]/c(=N\c3cc4cn(C)nc4cc3Cl)n(Cc3cc(F)c(F)cc3F)c2=O)n1` — result for “patients with adverse event”: 3.1% (human, all renal function groups; oral, 375 mg, treatment-related dry mouth, Mild severity).
With `COCCCNC(=O)C1CCN(Cc2cc3ccccc3n2Cc2cccc(Cl)c2)CC1` the maximum response was 44.9% (SARS-CoV-2; cytopathic effect; USA_WA1/2020; round 2, 5-point).
`NC(=O)c1ncn([C@@H]2O[C@H](CO)[C@@H](O)[C@H]2O)n1` — result for “reversal of antiviral activity”: “no effect” (Lassa virus; viral replication; concentration not given, ZsGreen reporter virus, added: cytidine, uridine, guanosine).
`CCCCN(C)CCNC(=O)c1cc(-c2ccc(Cl)s2)nc2ccccc12` has an efficacy of 54.6% (SARS-CoV-2; cytopathic effect; USA_WA1/2020; retest, 8-point, duplicates).
With `CCOCC(=O)N1CC(=O)N[C@@H](CC(C)C)c2nc(cs2)C(=O)N[C@@H](Cc2ccccc2)c2nc(C)nn2CC(=O)N[C@@H](C(C)C)C1` the remaining activity was 107% (Lassa mammarenavirus; viral replication; Huh-7; 10 µM, 72 h).
`CCN1CCN(c2cc(C)c3cc(NC(=O)c4cccc(Cl)c4)ccc3n2)CC1` gave a maximum response of 94.9% (SARS-CoV-2; cytopathic effect; USA_WA1/2020; round 1, 5-point).
`Nc1ncnc2c([C@@H]3N[C@H](CO)[C@@H](O)[C@H]3O)c[nH]c12` gave an inhibition of 14.8% (Yellow fever virus; viral replication; Vero 76, 17D; 3 µM).

Some of these lines once more:
For `CNC(=O)[C@H](Cc1c[nH]c2ccccc12)NC(=O)[C@@H](CC(=O)NO)CC(C)C`, the inhibition was -0.848% (rep main protease; reporter gene (mKate2), inhibitor; 20 µM).
